Measured values collected from several papers.
Lines come from different studies, so protocols differ. Numbers after ± are the reported error.

Cc1cc(C)n(CCN(CCN)CCCCCCNC(=O)[C@@H](N)Cc2c[nH]c3ccccc23)n1.[99Tc+].[C-]#[O+].[C-]#[O+].[C-]#[O+]
tissue uptake (BALB/c nude mice, A549 xenograft, stomach; intravenous, 4 h): 0.39 ± 0.03 %IA/g

COc1ccc2c(c1)C(C)(C)C(/C=C/C1=C(Oc3ccc(C(=O)NCCCCOc4cc(CN(Cc5ccccn5)Cc5ccccn5)cc(CN(Cc5ccccn5)Cc5ccccn5)c4)cc3)C(=C/C=C3/N(CCCCS(=O)(=O)[O-])c4ccc(OC)cc4C3(C)C)CCC1)=[N+]2CCCCS(=O)(=O)[O-].O=[N+]([O-])[O-].O=[N+]([O-])[O-].[99Tc+].[C-]#[O+].[C-]#[O+].[C-]#[O+].[Zn+2]
tissue uptake (BALB/c mice, S. aureus myositis, pancreas; 12 h post-injection): 1.22 %ID/g

COc1ccc(Nc2nc(Nc3ccc(OCCOCC[18F])cc3)ncc2Br)cc1
tissue uptake (ICR mice, S180 tumour-bearing, kidney; intravenous, 370 kBq, 120 min): 6.73 ± 0.11 %ID/g

N#C[C@@H]1CCCN1C(=O)CNC(=O)c1ccnc2ccc(OCCCN3CCN(C(=O)CCc4ccc5c(c4)CN4CCN(Cc6cc(CCC(=O)O)ccc6O)CC(=O)[O][Al-]([18F])([O]C(=O)C4)[O]5)CC3)cc12 (some centres unmarked)
tissue uptake (BALB/c nude mice, U-87 MG xenograft, lung; 1 h, blocking, together with: DOTA-FAPI-04 40 nmol/mouse co-injected): 0.64 ± 0.39 %ID/g

COc1ccc(Nc2nc(Nc3ccc(OCCOCCOCC[18F])cc3)ncc2Br)cc1
tissue uptake (ICR mice, S180 tumour-bearing, muscle; intravenous, 370 kBq, 5 min): 3.1 ± 0.05 %ID/g

CCCC[C@H](NC(=O)CNC(=O)CNC(=O)[C@H](CCCCNC(=O)[C@H](CC(=O)O)NC(=O)C(C)c1ccc(CC(C)C)cc1)NC(=O)CN1CCN(CC(=O)O)CCN(CC(=O)O)CCN(CC(=O)O)CC1)C(=O)N[C@H]1CC(=O)NCCCC[C@@H](C(N)=O)NC(=O)[C@H](Cc2c[nH]c3ccccc23)NC(=O)[C@H](CCCNC(=N)N)NC(=O)[C@@H](Cc2ccccc2)NC(=O)[C@H](Cc2c[nH]cn2)NC1=O (some centres unmarked) [lutetium-177 labelled]
tissue uptake (C57 mice, tumour-bearing, skin; 2 h): 1.46 ± 0.34 %ID/g

O=C(NCC1OC2CCC=CCCC2O1)c1ccc(COCCOCCOCC[18F])cc1 (centres unmarked)
tissue uptake (healthy female BALB/c nude mice, skin; intravenous, 7.4 MBq per mouse, 60 min): 2.5 ± 0.7 %ID/g

CC(C)C[C@H](NC(=O)[C@@H](CCCCNC(=O)[C@@H](Cc1ccccc1)NC(=O)CCCCCCCNC(=O)CN1CCN(CC(=O)O)CCN(CC(=O)O)CCN(CC(=O)O)CC1)NC(=O)[C@H](Cc1ccc(O)cc1)NC(=O)[C@H](CO)NC(=O)[C@H](Cc1c[nH]c2ccccc12)NC(=O)[C@H](Cc1c[nH]cn1)NC(=O)[C@@H]1CCC(=O)N1)C(=O)N[C@@H](CCCNC(=N)N)C(=O)N1CCC[C@H]1C(=O)NCC(N)=O [indium-111 labelled]
tissue uptake (male athymic nude mice, DU-145 prostate cancer xenograft, intestines; intravenous, 0.037 MBq, 4 h): 2.37 ± 0.15 %ID

Cc1cc(C)n(CCN(CCN)CCCCCCNC(=O)[C@@H](N)Cc2c[nH]cn2)n1.[99Tc+].[C-]#[O+].[C-]#[O+].[C-]#[O+]
tissue uptake (BALB/c nude mice, MCF7 xenograft, brain; intravenous, 4 h): 0.04 ± 0.01 %IA/g

CCCC[C@H](NC(=O)COCCOCCNC(=O)CN1CCN(CC(=O)O)CCN(CC(=O)O)CC1)C(=O)N[C@H]1CC(=O)NCCCC[C@@H](C(N)=O)NC(=O)[C@H](Cc2c[nH]c3ccccc23)NC(=O)[C@H](CCCNC(=N)N)NC(=O)[C@@H](Cc2ccccc2)NC(=O)[C@H](Cc2c[nH]cn2)NC1=O [fluorine-18 labelled]
tissue uptake (C57 mice, B16/F10 melanoma, skin; intravenous, 1 h, together with: NDP-MSH 10 µg): 0.46 ± 0.14 %ID/g

O=C(NCC1OC2CCC=CCCC2O1)c1ccc([18F])nc1 (centres unmarked)
tissue uptake (female BALB/c nude mice, LS174T tumour, muscle; intravenous, 60 min, together with: unmodified CC49 24 h before): 0.5 ± 0.2 %ID/g

CCCC[C@H](NC(=O)CNC(=O)CNC(=O)[C@H](CCCCNC(=O)C(C)c1ccc(CC(C)C)cc1)NC(=O)CN1CCN(CC(=O)O)CCN(CC(=O)O)CCN(CC(=O)O)CC1)C(=O)N[C@H]1CC(=O)NCCCC[C@@H](C(N)=O)NC(=O)[C@H](Cc2c[nH]c3ccccc23)NC(=O)[C@H](CCCNC(=N)N)NC(=O)[C@@H](Cc2ccccc2)NC(=O)[C@H](Cc2c[nH]cn2)NC1=O (some centres unmarked) [lutetium-177 labelled]
tissue uptake (C57 mice, tumour-bearing, kidneys; 2 h): 12.8 ± 2.45 %ID/g

CCCC[C@H](NC(=O)CCCCCCCNC(=O)CN1CCN(CC(=O)O)CCN(CC(=O)O)CC1)C(=O)N[C@H]1CC(=O)NCCCC[C@@H](C(N)=O)NC(=O)[C@H](Cc2c[nH]c3ccccc23)NC(=O)[C@H](CCCNC(=N)N)NC(=O)[C@@H](Cc2ccccc2)NC(=O)[C@H](Cc2c[nH]cn2)NC1=O [fluorine-18 labelled]
tissue uptake (C57 mice, B16/F10 melanoma, intestines; intravenous, 0.37 MBq, 1 h): 2.26 ± 0.52 %ID

O=C([O-])CN1CCN(CC(=O)[O-])CCN(CC(=O)NC[C@H]2CC[C@H](C(=O)N[C@H](Cc3cnc4ccccc4c3)C(=O)NCCCC[C@H](NC(=O)N[C@@H](CCC(=O)O)C(=O)O)C(=O)O)CC2)CCN(CC(=O)[O-])CC1.[64Cu+2]
tissue uptake (ex vivo gamma counting; 22Rv1 tumour-bearing mice, stomach; intravenous, 0.74 MBq, 1 h post-injection): 7.61 %ID/g

For quick reference, copied from above:
CCCC[C@H](NC(=O)CNC(=O)CNC(=O)[C@H](CCCCNC(=O)[C@H](CC(=O)O)NC(=O)C(C)c1ccc(CC(C)C)cc1)NC(=O)CN1CCN(CC(=O)O)CCN(CC(=O)O)CCN(CC(=O)O)CC1)C(=O)N[C@H]1CC(=O)NCCCC[C@@H](C(N)=O)NC(=O)[C@H](Cc2c[nH]c3ccccc23)NC(=O)[C@H](CCCNC(=N)N)NC(=O)[C@@H](Cc2ccccc2)NC(=O)[C@H](Cc2c[nH]cn2)NC1=O (some centres unmarked) [lutetium-177 labelled]
tissue uptake (C57 mice, tumour-bearing, skin; 2 h): 1.46 ± 0.34 %ID/g

O=C([O-])CN1CCN(CC(=O)[O-])CCN(CC(=O)NC[C@H]2CC[C@H](C(=O)N[C@H](Cc3cnc4ccccc4c3)C(=O)NCCCC[C@H](NC(=O)N[C@@H](CCC(=O)O)C(=O)O)C(=O)O)CC2)CCN(CC(=O)[O-])CC1.[64Cu+2]
tissue uptake (ex vivo gamma counting; 22Rv1 tumour-bearing mice, stomach; intravenous, 0.74 MBq, 1 h post-injection): 7.61 %ID/g
